Experimental data of several laboratories.
Each numbered part is a random draw from the data of one study; scales do not carry over between parts. Positions count from the first letter of the parent shown.
Chain of UniProt Q93WC4 (whole entry, looked up): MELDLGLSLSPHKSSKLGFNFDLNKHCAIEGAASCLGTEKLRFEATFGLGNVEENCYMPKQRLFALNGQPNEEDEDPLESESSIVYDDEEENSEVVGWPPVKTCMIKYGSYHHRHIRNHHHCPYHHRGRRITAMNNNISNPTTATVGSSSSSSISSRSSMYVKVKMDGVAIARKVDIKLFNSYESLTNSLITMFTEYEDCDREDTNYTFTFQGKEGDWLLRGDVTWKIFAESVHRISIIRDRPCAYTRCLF
Chain of UniProt Q9ZSY8 (whole entry, looked up): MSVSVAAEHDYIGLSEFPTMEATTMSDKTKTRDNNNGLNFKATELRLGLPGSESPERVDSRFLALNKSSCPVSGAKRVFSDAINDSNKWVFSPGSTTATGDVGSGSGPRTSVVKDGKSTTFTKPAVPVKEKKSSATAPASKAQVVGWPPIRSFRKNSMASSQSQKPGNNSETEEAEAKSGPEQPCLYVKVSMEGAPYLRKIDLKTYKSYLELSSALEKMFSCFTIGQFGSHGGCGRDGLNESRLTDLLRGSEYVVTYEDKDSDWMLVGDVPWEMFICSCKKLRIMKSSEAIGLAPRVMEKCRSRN
Chain of UniProt Q84WU6 (whole entry, looked up): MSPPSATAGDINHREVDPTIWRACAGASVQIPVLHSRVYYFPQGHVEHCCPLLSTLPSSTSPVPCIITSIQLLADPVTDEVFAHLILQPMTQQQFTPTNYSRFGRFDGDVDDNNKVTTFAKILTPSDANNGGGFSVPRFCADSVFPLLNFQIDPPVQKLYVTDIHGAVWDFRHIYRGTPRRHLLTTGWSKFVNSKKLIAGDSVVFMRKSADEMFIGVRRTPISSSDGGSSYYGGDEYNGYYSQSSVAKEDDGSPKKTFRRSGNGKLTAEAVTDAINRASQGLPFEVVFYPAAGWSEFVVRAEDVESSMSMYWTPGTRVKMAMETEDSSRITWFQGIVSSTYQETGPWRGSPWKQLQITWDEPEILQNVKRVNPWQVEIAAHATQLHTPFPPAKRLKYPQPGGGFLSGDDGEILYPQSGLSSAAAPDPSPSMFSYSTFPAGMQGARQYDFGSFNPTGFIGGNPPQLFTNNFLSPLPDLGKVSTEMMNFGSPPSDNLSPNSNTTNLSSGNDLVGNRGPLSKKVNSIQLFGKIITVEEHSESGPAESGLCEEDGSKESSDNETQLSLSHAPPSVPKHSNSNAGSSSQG
Chain of UniProt P93024 (whole entry, looked up): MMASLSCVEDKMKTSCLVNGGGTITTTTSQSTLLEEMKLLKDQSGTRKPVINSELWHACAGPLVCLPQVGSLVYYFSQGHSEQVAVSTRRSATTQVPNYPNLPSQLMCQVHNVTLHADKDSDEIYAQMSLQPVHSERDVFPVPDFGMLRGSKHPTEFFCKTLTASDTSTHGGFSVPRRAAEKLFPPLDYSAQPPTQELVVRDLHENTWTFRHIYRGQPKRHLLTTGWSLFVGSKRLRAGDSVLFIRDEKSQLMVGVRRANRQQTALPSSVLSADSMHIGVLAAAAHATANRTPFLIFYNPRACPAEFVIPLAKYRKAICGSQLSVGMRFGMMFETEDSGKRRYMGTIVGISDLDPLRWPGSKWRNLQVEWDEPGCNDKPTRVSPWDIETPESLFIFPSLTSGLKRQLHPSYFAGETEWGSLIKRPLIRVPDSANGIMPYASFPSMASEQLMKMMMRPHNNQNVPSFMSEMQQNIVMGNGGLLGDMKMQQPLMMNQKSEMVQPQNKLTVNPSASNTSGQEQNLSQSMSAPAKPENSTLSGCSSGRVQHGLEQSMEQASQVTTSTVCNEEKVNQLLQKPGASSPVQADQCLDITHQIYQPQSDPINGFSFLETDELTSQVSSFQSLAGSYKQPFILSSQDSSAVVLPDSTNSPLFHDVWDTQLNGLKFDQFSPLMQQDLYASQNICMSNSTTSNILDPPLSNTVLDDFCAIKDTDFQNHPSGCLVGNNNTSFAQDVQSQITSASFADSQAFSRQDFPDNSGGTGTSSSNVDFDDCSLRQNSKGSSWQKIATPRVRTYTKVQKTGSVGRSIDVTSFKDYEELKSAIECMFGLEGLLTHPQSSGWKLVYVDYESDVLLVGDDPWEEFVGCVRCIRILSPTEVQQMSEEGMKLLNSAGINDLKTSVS
Chain of UniProt Q9XFM0 (whole entry, looked up): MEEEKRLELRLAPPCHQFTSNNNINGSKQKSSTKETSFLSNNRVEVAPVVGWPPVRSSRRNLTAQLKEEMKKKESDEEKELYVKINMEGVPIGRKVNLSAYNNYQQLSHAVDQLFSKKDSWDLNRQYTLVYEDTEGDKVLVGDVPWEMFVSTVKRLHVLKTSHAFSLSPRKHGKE
Chain of UniProt Q9C8N7 (whole entry, looked up): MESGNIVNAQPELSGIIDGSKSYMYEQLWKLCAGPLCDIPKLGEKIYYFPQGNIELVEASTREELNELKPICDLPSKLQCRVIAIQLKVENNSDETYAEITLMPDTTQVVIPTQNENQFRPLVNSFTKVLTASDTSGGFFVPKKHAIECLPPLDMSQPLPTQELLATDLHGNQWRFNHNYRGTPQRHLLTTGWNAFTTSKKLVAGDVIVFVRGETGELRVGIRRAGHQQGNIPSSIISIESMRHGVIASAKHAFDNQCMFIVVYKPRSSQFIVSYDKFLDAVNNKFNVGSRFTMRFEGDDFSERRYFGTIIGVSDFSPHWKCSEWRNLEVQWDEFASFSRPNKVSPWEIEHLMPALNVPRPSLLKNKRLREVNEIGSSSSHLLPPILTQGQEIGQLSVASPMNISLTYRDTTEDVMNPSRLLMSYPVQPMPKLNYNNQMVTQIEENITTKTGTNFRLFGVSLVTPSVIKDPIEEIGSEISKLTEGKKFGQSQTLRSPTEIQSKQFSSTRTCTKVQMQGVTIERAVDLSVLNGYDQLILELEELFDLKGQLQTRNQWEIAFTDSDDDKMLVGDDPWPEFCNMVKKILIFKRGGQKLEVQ
Chain of UniProt P93022 (whole entry, looked up): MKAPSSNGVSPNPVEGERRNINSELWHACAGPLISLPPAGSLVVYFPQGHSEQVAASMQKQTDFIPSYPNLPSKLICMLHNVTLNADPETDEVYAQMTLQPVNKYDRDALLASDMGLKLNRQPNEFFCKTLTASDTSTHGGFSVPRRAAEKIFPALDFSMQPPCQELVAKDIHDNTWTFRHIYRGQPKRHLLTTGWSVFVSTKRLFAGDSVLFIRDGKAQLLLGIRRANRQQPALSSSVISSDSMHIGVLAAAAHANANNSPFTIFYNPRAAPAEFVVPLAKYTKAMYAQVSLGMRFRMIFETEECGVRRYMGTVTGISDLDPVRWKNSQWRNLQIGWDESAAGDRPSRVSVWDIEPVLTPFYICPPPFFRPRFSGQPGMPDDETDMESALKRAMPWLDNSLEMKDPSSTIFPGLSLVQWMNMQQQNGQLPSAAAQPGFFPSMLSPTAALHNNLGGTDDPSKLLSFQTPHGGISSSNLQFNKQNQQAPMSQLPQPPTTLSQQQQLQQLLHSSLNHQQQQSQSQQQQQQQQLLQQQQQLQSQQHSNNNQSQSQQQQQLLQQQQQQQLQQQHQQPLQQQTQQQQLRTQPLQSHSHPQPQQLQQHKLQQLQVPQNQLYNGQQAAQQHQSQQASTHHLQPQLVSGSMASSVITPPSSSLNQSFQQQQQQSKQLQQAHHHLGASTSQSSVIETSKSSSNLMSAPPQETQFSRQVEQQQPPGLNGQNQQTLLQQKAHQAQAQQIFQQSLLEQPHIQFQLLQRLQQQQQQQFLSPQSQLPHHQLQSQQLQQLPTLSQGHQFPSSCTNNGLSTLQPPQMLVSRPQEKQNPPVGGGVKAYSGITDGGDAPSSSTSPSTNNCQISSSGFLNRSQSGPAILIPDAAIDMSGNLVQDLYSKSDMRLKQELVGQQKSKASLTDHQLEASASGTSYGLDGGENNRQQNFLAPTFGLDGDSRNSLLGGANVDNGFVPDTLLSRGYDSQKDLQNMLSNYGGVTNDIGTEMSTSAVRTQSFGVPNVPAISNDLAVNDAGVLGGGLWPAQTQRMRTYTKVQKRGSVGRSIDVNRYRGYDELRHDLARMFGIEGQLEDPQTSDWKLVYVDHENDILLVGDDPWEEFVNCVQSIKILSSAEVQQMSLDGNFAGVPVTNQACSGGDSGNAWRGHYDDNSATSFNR
Chain of UniProt O24408 (whole entry, looked up): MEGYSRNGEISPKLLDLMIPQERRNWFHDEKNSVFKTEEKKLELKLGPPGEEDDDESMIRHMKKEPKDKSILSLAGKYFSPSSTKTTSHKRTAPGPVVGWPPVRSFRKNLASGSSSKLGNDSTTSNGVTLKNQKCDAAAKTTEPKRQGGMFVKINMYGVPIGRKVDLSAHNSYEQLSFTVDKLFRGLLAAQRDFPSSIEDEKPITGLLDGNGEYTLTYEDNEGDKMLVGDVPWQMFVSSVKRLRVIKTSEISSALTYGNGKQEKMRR

Block 1
Sequence: B1 (IAA6)
Method: two-hybrid
Direction: higher = firmer interaction
Measurement: positive tests
B1: IAA6 (Arabidopsis thaliana, UniProt Q38824); chain MAKEGLALEITELRLGLPGDNYSEISVCGSSKKKKRVLSDMMTSSALDTENENSVVSSVEDESLPVVKSQAVGWPPVCSYRRKKNNEEASKAIGYVKVSMDGVPYMRKIDLGSSNSYINLVTVLENLFGCLGIGVAKEGKKCEYIIIYEDKDRDWMLVGDVPWQMFKESCKRLRIVKRSDATGFGLQQD
IAA29 (Arabidopsis thaliana, UniProt Q93WC4); reference: out of 4 tests: 0
ARF5 788-902 (Arabidopsis thaliana, UniProt P93024); reference: out of 4 tests: 1
ARF7 1030-1164 (Arabidopsis thaliana, UniProt P93022); reference: out of 4 tests: 0
IAA28 (Arabidopsis thaliana, UniProt Q9XFM0); reference: out of 4 tests: 0
IAA18 (Arabidopsis thaliana, UniProt O24408); reference: out of 2 tests: 0
ARF17 (Arabidopsis thaliana, UniProt Q84WU6); weak activation fusion; reference: out of 4 tests: 0
ARF22 498-598 (Arabidopsis thaliana, UniProt Q9C8N7); reference: out of 4 tests: 0
IAA27 (Arabidopsis thaliana, UniProt Q9ZSY8); reference: out of 4 tests: 2

Block 2
Target: Sal-like protein 4, full length isoform B (SALL4, Homo sapiens, UniProt Q9UJQ4-2, residues 1-616)
Method: universal PBM
Form: double-stranded DNA, one strand shown
Medium: in vitro
Concentration: not given
Setting: 8-mer, flanks averaged, mean of replicates
Direction: higher = stronger binding
Measurement: E-score
Target sequence (chain): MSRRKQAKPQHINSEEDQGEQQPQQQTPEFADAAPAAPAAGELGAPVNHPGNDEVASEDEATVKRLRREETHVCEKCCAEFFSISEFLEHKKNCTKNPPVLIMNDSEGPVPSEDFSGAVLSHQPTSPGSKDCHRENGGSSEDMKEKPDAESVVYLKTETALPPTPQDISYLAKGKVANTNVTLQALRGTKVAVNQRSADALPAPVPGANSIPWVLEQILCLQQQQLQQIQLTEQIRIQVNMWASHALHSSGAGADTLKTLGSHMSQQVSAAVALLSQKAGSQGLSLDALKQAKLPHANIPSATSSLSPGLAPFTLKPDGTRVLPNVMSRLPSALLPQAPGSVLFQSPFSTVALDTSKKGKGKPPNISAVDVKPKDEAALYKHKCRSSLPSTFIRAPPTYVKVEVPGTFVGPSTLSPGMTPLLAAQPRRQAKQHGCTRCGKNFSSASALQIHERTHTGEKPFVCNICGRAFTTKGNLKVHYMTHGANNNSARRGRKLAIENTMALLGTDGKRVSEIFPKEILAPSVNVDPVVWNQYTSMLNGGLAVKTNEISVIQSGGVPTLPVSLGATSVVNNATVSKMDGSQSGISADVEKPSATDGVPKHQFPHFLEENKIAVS
CTCTAGCA: 4e-05
AGTTGCTC: -0.168
GGGCCCAA: -0.159
CCGGTAGG: -0.301
ACGCCGGA: -0.262
AGGGCGTG: -0.265
TGACGCAA: -0.0899
CGCTGCCG: -0.343

Block 3
Target: Ras GTPase-activating protein-binding protein 1, C-terminal RGG region (G3BP1, Homo sapiens, UniProt Q13283)
Chain of UniProt Q13283 (whole entry, looked up): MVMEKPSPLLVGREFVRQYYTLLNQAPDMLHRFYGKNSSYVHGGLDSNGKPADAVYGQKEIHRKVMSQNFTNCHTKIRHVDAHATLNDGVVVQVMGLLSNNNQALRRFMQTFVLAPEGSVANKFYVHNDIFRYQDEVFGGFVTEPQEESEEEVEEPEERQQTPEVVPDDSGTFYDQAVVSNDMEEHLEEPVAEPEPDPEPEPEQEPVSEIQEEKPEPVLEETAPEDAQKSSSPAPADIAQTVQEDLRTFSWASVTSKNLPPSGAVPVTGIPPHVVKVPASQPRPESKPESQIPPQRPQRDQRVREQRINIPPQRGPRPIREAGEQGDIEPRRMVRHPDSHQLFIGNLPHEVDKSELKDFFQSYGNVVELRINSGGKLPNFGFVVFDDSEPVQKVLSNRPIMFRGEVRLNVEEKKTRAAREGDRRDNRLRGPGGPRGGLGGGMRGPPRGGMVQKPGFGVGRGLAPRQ
Method: RNA Bind-n-Seq
Form: RNA
Medium: in vitro
Concentration: 1 µM
Setting: whole 134-nt RNA, ends assumed
With: 150 mM KCl
Reference: input library
Direction: higher = stronger binding
Measurement: log2 enrichment
Constant ends, left off below: GGGAGUUCUACAGUCCGACGAUC … UGGAAUUCUCGGGUGUCAAGG
GUCCUGUGCUACACAUCGUAUGUACCGAAUCGGGGUUUUUUUGGGGUGGGGAAAGGGGAAAGUAUUAUGUUACGCCGUUCGGAUCUGCAC: 2.49
UCCUCAAGUCCUGUGCUACACAUCGUAUGUACCGAAUCGGGUGGGUGGGUGGAAAGUAUUAUGUUACGCCGUUCGGAUCUGCACUUCCAG: 1.87
UCCUCAAGUCCUGUGCUACACAUCGUAUGUACCGAAUCGGGGCGGGCGGCGGAAAGUAUUAUGUUACGCCGUUCGGAUCUGCACUUCCAG: -0.984
GCAGGAAGUAAAAACAAGUGGAAAUGCUUCGGAUAGUGGCAGGGGUGGGGGUUGCUAAGGAAAGGGUGGGAUGGGAGUGGGUAAAGAGUU: 1.68
UUCAAGGCCAUGAAGGACCUGUUUAUGCGGUGCAUGCUGUUUACCAGAGGAGGACAUCAGAUCCUGCAUUAUGUACACUGAUCGUUUCUG: -1.02
CUGUGCUACACAUCGUAUGUACCGAAUCGGGGUUUUUUUGGUUUUUUUGGGGUUUUUUUGGGAAAGUAUUAUGUUACGCCGUUCGGAUCU: -1.29
CAAGUCCUGUGCUACACAUCGUAUGUACCGAAUCAAACCCAAACCCAAACCCAAAAAAGUAUUAUGUUACGCCGUUCGGAUCUGCACUUC: -0.866
CUCAAGUCCUGUGCUACACAUCGUAUGUACCGAAUCGGAAAAAGGUUUGGAGGAAAGUAUUAUGUUACGCCGUUCGGAUCUGCACUUCCA: -1.34

Further values, each from its own experiment
Starting sequence: viral docking peptide; KGVKRKLFAEDSS; partner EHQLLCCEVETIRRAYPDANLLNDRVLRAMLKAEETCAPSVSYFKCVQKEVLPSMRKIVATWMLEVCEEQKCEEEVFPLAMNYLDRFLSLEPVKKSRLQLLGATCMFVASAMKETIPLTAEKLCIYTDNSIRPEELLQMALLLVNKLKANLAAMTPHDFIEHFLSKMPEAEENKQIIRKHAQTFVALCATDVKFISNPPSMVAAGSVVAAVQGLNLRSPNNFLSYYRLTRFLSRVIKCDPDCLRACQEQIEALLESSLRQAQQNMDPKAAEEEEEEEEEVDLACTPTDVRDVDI
KGVKRKMFAEDSS [L7M]  normalised enrichment score (CCND1, cyclin fold, Cln2 fusion (human); yeast growth competition, sequencing; yeast; strong parent motif; reference: not given, higher = stronger binding): 0.334

A few entries again (block 2):
CCGGTAGG: -0.301
AGGGCGTG: -0.265
